Measurements from different studies.
Each line is one published result; not all experiments were run side by side. “And” joins repeats or separate records; there may be more than shown. ± gives the spread as reported.

Amino acid sequences for entries named in this document (tags omitted). Residues count along the entry.
UniProt P10959, 19-549 limits assumed: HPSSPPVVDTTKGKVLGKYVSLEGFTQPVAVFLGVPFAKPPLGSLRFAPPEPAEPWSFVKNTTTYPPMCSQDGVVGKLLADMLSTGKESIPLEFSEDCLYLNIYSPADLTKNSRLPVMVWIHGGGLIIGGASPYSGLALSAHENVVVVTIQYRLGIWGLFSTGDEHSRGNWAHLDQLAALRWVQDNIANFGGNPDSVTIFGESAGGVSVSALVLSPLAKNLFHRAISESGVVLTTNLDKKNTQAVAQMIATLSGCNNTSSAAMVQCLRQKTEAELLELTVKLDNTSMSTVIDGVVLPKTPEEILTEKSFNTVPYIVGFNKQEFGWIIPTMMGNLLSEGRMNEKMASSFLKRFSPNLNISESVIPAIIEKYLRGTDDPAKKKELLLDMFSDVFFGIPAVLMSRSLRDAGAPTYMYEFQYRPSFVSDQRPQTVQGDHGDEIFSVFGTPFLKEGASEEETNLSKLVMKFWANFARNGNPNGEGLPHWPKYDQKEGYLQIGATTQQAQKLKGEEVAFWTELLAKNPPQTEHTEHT
UniProt Q8I719, whole entry: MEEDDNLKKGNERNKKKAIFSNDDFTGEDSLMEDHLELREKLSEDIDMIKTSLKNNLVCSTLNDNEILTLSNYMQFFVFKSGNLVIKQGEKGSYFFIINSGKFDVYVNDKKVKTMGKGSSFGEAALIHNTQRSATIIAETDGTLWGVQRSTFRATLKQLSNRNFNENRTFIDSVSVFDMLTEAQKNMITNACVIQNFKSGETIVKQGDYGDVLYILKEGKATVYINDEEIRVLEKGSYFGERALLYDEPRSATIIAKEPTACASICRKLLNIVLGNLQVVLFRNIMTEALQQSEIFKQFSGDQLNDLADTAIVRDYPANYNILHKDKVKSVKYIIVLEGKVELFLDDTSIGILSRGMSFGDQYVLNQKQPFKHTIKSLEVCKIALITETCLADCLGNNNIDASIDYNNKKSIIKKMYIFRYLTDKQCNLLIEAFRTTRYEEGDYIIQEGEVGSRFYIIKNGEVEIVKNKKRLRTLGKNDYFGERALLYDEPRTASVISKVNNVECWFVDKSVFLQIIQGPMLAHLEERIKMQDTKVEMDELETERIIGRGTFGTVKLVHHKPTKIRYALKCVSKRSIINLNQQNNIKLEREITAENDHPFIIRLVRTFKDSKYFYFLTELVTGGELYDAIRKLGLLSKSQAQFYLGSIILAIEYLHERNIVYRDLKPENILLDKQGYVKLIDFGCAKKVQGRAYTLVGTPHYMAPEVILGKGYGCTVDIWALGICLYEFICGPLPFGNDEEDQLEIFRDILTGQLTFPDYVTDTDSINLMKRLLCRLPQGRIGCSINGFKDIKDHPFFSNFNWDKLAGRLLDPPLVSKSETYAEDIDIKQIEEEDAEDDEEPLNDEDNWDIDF

COc1ccc(S(=O)(=O)Nc2cccc(C(=O)NC3CCN(c4ncnc5[nH]cnc45)CC3)c2)cc1
relative infection (SARS-CoV-2; Wuhan-Hu-1; 0.823 µM; relative to: untreated infected cells): 60.1%

CC(C)[C@H]1CC[C@@H](N2CCC3(CC2)C(=O)NCN3c2ccccc2)CC1
Emax (twitch contraction, electrical stimulation; NOP(+/+) mice, mouse vas deferens): 98 ± 2 % inhibition

CC[C@H](C)[C@H](NC(=O)[C@H](C)NC(=O)[C@H](CCC(=O)O)NC(=O)[C@H](CCC(=O)O)NC(=O)[C@H](CC(C)C)NC(=O)[C@H](CCCCN)NC(=O)[C@H](CCCCN)NC(=O)[C@H](CCSC)NC(=O)[C@H](CCC(=O)O)NC(=O)[C@H](Cc1ccc(O)cc1)NC(=O)[C@H](CCC(=O)O)NC(=O)[C@H](CC(C)C)NC(=O)[C@H](CC(=O)O)NC(=O)[C@H](CC(C)C)NC(=O)[C@H](Cc1ccccc1)NC(=O)[C@@H](NC(=O)[C@@H](NC(=O)[C@H](CC(N)=O)NC(=O)[C@@H](NC(=O)[C@H](CCC(N)=O)NC(=O)[C@H](CC(=O)O)NC(=O)[C@H](CC(C)C)NC(=O)[C@@H](N)CO)[C@@H](C)CC)C(C)C)[C@@H](C)O)C(=O)N[C@@H](CCCCN)C(=O)N[C@@H](CCCCN)C(=O)N[C@@H](CC(C)C)C(=O)N[C@@H](CCC(=O)O)C(=O)N[C@@H](CCC(=O)O)C(=O)N[C@H](C(=O)N[C@@H](Cc1ccc(O)cc1)C(=O)N[C@H](C(=O)N[C@@H](CC(=O)O)C(=O)N[C@@H](CC(C)C)C(=O)N[C@@H](CCCCN)C(=O)N[C@@H](CCC(=O)O)C(=O)N[C@@H](CC(C)C)C(=O)O)[C@@H](C)CC)[C@@H](C)O
IC50 (SARS-CoV-2 Beta pseudovirus; pseudovirus infection, inhibitor, luciferase; Caco-2; 24 h): 1570 nM

NCc1ccc(-c2ncc(OCC3CCNCC3)nc2-c2ccc(-c3ccoc3)cc2)cc1
survival time (Zika virus; ZIKV-FLR, C57BL/6 mice, interferon receptor knockout; 20 mg/kg/day, 3 days, mean survival): 13.7 days

Cc1cc(C(=O)N[C@@H](Cc2cccc3ccccc23)C(=O)N[C@@H](CC(C)C)C(=O)N[C@H](C=O)C[C@@H]2CCCNC2=O)no1
EC90 (Norovirus; viral replication, RT-qPCR; HG23 replicon cells; four days): 70 ± 20 nM

CC[C@H](C)[C@H](NC(=O)[C@H](C)NC(=O)[C@H](CCC(=O)O)NC(=O)[C@H](CCC(=O)O)NC(=O)[C@H](CC(C)C)NC(=O)[C@H](CCCCN)NC(=O)[C@H](CCCCN)NC(=O)[C@H](CCSC)NC(=O)[C@H](CCC(=O)O)NC(=O)[C@H](Cc1ccc(O)cc1)NC(=O)[C@H](CCC(=O)O)NC(=O)[C@H](CC(C)C)NC(=O)[C@H](CC(=O)O)NC(=O)[C@H](CC(C)C)NC(=O)[C@H](Cc1ccccc1)NC(=O)[C@@H](NC(=O)[C@@H](NC(=O)[C@H](CC(N)=O)NC(=O)[C@@H](NC(=O)[C@H](CCC(N)=O)NC(=O)[C@H](CC(=O)O)NC(=O)[C@H](CC(C)C)NC(=O)[C@@H](N)CO)[C@@H](C)CC)C(C)C)[C@@H](C)O)C(=O)N[C@@H](CCCCN)C(=O)N[C@@H](CCCCN)C(=O)N[C@@H](CC(C)C)C(=O)N[C@@H](CCC(=O)O)C(=O)N[C@@H](CCC(=O)O)C(=O)N[C@@H](C)C(=O)N[C@@H](Cc1ccc(O)cc1)C(=O)N[C@H](C(=O)N[C@@H](CC(=O)O)C(=O)N[C@@H](CC(C)C)C(=O)N[C@@H](CCCCN)C(=O)N[C@@H](CCC(=O)O)C(=O)N[C@@H](CC(C)C)C(=O)O)[C@@H](C)CC
IC50 (SARS-CoV-2 JN.1 pseudovirus; pseudovirus infection, inhibitor, luciferase; Caco-2; 24 h): 1390 nM

Cc1ccccc1S(=O)(=O)Nc1cccc(C(=O)NC2CCN(c3ncnc4[nH]cnc34)CC2)c1
relative infection (SARS-CoV-2; Wuhan-Hu-1; 0.2743 µM; relative to: untreated infected cells): 67.1%

CC[C@H](C)[C@H](NC(=O)[C@H](C)NC(=O)[C@H](CCC(=O)O)NC(=O)[C@H](CCC(=O)O)NC(=O)[C@H](CC(C)C)NC(=O)[C@H](CCCCN)NC(=O)[C@H](CCCCN)NC(=O)[C@H](CCSC)NC(=O)[C@H](CCC(=O)O)NC(=O)[C@H](Cc1ccc(O)cc1)NC(=O)[C@H](CCC(=O)O)NC(=O)[C@H](CC(C)C)NC(=O)[C@H](CC(=O)O)NC(=O)[C@H](CC(C)C)NC(=O)[C@H](Cc1ccccc1)NC(=O)[C@H](Cc1ccccc1)NC(=O)[C@@H](NC(=O)[C@H](CC(N)=O)NC(=O)[C@@H](NC(=O)[C@H](CCC(N)=O)NC(=O)[C@H](CC(=O)O)NC(=O)[C@H](CC(C)C)NC(=O)[C@@H](N)CO)[C@@H](C)CC)C(C)C)C(=O)N[C@@H](CCCCN)C(=O)N[C@@H](CCCCN)C(=O)N[C@@H](CC(C)C)C(=O)N[C@@H](CCC(=O)O)C(=O)N[C@@H](CCC(=O)O)C(=O)N[C@@H](C)C(=O)N[C@@H](Cc1ccc(O)cc1)C(=O)N[C@H](C(=O)N[C@@H](CC(=O)O)C(=O)N[C@@H](CC(C)C)C(=O)N[C@@H](CCCCN)C(=O)N[C@@H](CCC(=O)O)C(=O)N[C@@H](CC(C)C)C(=O)O)[C@@H](C)CC
IC50 (SARS-CoV-2 Beta pseudovirus; pseudovirus infection, inhibitor, luciferase; Caco-2; 24 h, dual mutations): 379 nM

O=C(NC1CCN(c2ncnc3[nH]cnc23)CC1)c1cccc(NS(=O)(=O)c2ccc(Cl)cc2)c1
relative infection (SARS-CoV-2; Wuhan-Hu-1; 2.469 µM; relative to: untreated infected cells): 43.5%

CC(=O)Oc1ccc(CON2C(=O)CCC2=O)cc1
EC50 (hiPSC-derived neurons, human; SNAP-25 cleavage protection; added: botulinum neurotoxin A): 4900 nM

CCOP(=O)(OCC)ON1C(=O)c2cccc3cccc(c23)C1=O
IC50 (Carboxylesterase 1C (Ces1c, Rattus norvegicus, UniProt P10959); enzyme activity, inhibitor; rat, postnatal day 12, rat serum; added: p-nitrophenyl valerate): 1.1 nM

CC(=NNC(=S)N1CCC1)c1ccccn1
median survival time extension (mouse, BoNT/A1 intoxication; ip, 10 mg/kg, added: botulinum neurotoxin A1): ~1.2 h

Cc1ccc(S(=O)(=O)Nc2cccc(C(=O)NC3CCN(c4ncnc5[nH]cnc45)CC3)c2)cc1
inhibition (monkeypox virus E1/E12; 0.04883 µM): 24.2% and 15.2%

CC[C@H](C)[C@H](NC(=O)[C@H](C)NC(=O)[C@H](CCC(=O)O)NC(=O)[C@H](CCC(=O)O)NC(=O)[C@H](CC(C)C)NC(=O)[C@H](CCCCN)NC(=O)[C@H](CCCCN)NC(=O)[C@H](CCSC)NC(=O)[C@H](CCC(=O)O)NC(=O)[C@H](Cc1ccc(O)cc1)NC(=O)[C@H](CCC(=O)O)NC(=O)[C@H](CC(C)C)NC(=O)[C@H](CC(=O)O)NC(=O)[C@H](CC(C)C)NC(=O)[C@H](Cc1ccccc1)NC(=O)[C@@H](NC(=O)[C@@H](NC(=O)[C@H](CC(N)=O)NC(=O)[C@@H](NC(=O)[C@H](CCC(N)=O)NC(=O)[C@H](CC(=O)O)NC(=O)[C@H](CC(C)C)NC(=O)[C@@H](N)CO)[C@@H](C)CC)C(C)C)[C@@H](C)O)C(=O)N[C@@H](CCCCN)C(=O)N[C@@H](CCCCN)C(=O)N[C@@H](CC(C)C)C(=O)N[C@@H](CCC(=O)O)C(=O)N[C@@H](CCC(=O)O)C(=O)N[C@@H](CO)C(=O)N[C@@H](Cc1ccc(O)cc1)C(=O)N[C@H](C(=O)N[C@@H](CC(=O)O)C(=O)N[C@@H](CC(C)C)C(=O)N[C@@H](CCCCN)C(=O)N[C@@H](CCC(=O)O)C(=O)N[C@@H](CC(C)C)C(=O)O)[C@@H](C)CC
IC50 (SARS-CoV-2 Delta pseudovirus; pseudovirus infection, inhibitor, luciferase; Caco-2; 24 h): 441 nM

Nc1ccc([As]=O)cc1 (stereo not drawn)
IC50 (HCT-116; cell viability, MTS): 5030 ± 660 nM

CC#Cc1ccc2c(=O)[nH]nc(Cc3ccc(F)c(C(=O)N4CCN(c5ccc(C#N)cn5)CC4)c3)c2c1
selectivity ratio (PARP family members; PASTA; relative to: other PARPs over PARP7): > 50 fold

CS(=O)(=O)Cc1onc(-c2cccc(Cl)c2)c1-c1ccnc(N[C@@H]2CCN(C(=O)c3nccs3)C2)n1
IC50 (cGMP-dependent protein kinase (PKG, Plasmodium falciparum, UniProt Q8I719); kinase activity, inhibitor, IMAP; added: ATP 10 µM, FAM-PKAtide): 14 ± 1 nM

CC[C@H](C)[C@H](NC(=O)[C@H](C)NC(=O)[C@H](CCC(=O)O)NC(=O)[C@H](CCC(=O)O)NC(=O)[C@H](CC(C)C)NC(=O)[C@H](CCCCN)NC(=O)[C@H](CCCCN)NC(=O)[C@H](CCSC)NC(=O)[C@H](CCC(=O)O)NC(=O)[C@H](Cc1ccc(O)cc1)NC(=O)[C@H](CCC(=O)O)NC(=O)[C@H](CC(C)C)NC(=O)[C@H](CC(=O)O)NC(=O)[C@H](CC(C)C)NC(=O)[C@H](Cc1ccccc1)NC(=O)[C@@H](NC(=O)[C@@H](NC(=O)[C@H](CC(N)=O)NC(=O)[C@@H](NC(=O)[C@H](CCC(N)=O)NC(=O)[C@H](CC(=O)O)NC(=O)[C@H](CC(C)C)NC(=O)[C@H](CO)NC(=O)[C@H](CC(C)C)NC(=O)[C@H](CC(=O)O)NC(=O)[C@@H]1CCCN1C(=O)[C@H](C)N)[C@@H](C)CC)C(C)C)[C@@H](C)O)C(=O)N[C@@H](CCCCN)C(=O)N[C@@H](CCCCN)C(=O)N[C@@H](CC(C)C)C(=O)N[C@@H](CCC(=O)O)C(=O)N[C@@H](CCC(=O)O)C(=O)N[C@@H](CO)C(=O)N[C@@H](Cc1ccc(O)cc1)C(=O)N[C@H](C(=O)N[C@@H](CC(=O)O)C(=O)N[C@@H](CC(C)C)C(=O)N[C@@H](CCCCN)C(=O)N[C@@H](CCC(=O)O)C(=O)N[C@@H](CC(C)C)C(=O)O)[C@@H](C)CC
IC50 (SARS-CoV-2 Gamma pseudovirus; pseudovirus infection, inhibitor, luciferase; Caco-2; 24 h): 432 nM

Excerpt of the above:
O=C(NC1CCN(c2ncnc3[nH]cnc23)CC1)c1cccc(NS(=O)(=O)c2ccc(Cl)cc2)c1
relative infection (SARS-CoV-2; Wuhan-Hu-1; 2.469 µM; relative to: untreated infected cells): 43.5%
